{"data": "Results collected from several papers", "note": "A part holds a random share of what one study measured. Several values in a cell are separate wells, animals, samples, runs or records.", "UniProt P07948, sequence (whole entry, looked up)": "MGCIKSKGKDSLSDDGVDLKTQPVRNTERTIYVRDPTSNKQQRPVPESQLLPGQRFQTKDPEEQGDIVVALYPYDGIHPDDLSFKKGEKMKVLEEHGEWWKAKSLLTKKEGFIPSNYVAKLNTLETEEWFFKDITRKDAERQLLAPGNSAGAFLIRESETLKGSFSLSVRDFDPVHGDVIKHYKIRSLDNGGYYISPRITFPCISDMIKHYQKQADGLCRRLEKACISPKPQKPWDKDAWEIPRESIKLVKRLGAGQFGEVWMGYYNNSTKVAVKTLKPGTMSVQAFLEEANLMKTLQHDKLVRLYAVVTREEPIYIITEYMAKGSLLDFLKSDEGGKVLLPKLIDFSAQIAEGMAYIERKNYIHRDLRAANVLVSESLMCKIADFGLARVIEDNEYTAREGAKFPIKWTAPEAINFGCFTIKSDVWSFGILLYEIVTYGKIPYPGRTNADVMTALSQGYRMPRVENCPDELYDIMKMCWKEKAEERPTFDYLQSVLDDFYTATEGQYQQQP", "UniProt P42681, sequence (whole entry, looked up)": "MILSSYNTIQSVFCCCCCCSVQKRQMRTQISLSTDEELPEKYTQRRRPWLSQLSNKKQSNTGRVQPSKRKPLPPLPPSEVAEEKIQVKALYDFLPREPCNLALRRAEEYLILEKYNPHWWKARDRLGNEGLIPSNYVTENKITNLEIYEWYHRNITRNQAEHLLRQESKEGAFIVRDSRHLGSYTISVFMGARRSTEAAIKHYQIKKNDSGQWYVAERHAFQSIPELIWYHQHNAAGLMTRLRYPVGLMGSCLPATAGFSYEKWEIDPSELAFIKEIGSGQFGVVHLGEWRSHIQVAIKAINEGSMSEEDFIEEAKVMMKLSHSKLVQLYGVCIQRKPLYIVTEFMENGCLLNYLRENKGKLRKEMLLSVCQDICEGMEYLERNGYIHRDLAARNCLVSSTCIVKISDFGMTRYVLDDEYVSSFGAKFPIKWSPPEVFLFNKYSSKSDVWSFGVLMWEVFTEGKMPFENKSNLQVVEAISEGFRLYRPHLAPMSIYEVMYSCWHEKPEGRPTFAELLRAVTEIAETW", "UniProt P35626, sequence (whole entry, looked up)": "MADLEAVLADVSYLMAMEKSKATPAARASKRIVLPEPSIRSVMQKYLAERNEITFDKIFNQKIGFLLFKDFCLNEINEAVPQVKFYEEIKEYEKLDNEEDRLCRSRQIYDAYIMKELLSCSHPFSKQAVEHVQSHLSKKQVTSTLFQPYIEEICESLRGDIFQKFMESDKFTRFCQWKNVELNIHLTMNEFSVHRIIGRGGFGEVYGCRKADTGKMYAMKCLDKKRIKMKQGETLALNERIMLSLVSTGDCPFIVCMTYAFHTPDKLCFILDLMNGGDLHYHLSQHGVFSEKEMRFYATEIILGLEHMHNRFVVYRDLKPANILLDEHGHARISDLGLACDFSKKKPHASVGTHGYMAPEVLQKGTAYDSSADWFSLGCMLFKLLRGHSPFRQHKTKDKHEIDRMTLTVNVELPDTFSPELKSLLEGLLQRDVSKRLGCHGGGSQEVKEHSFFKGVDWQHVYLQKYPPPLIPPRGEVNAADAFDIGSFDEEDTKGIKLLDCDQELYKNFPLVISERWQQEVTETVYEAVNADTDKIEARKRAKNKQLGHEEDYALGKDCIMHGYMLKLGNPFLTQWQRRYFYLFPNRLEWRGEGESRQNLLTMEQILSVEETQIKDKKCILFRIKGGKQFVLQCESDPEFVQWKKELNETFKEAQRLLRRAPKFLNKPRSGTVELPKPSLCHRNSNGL", "UniProt Q00537, sequence (whole entry, looked up)": "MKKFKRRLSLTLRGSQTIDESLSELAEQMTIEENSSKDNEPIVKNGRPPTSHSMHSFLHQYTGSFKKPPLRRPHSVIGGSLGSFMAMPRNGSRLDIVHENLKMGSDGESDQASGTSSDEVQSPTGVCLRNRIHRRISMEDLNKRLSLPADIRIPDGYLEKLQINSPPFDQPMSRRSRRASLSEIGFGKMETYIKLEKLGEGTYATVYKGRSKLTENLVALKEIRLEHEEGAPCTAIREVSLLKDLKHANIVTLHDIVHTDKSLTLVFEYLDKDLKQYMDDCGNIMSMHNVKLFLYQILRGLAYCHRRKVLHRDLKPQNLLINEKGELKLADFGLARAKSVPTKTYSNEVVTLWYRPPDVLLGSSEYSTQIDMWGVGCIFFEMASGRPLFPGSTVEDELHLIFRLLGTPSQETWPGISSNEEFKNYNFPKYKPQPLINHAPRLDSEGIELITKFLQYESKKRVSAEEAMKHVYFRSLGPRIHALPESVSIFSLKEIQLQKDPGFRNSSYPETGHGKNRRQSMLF", "UniProt Q8NFD2, sequence (whole entry, looked up)": "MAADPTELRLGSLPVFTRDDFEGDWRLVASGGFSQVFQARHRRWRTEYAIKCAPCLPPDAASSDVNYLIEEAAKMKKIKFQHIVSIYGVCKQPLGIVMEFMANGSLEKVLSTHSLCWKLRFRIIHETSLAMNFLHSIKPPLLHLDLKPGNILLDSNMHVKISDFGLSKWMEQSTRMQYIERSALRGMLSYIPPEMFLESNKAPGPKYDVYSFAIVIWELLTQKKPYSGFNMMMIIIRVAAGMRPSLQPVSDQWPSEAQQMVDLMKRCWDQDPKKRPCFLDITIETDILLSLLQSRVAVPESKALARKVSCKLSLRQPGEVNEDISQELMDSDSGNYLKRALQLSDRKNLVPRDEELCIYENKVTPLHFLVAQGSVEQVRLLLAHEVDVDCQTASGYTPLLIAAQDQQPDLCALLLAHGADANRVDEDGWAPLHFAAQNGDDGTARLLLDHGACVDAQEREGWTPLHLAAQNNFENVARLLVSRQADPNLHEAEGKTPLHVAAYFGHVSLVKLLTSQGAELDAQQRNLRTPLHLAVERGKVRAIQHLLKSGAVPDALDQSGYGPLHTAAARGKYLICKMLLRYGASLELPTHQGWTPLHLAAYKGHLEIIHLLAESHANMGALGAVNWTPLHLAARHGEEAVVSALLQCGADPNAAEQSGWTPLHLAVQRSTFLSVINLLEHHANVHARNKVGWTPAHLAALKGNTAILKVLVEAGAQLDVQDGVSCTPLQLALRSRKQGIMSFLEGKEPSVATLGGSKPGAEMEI", "UniProt P51955, sequence (whole entry, looked up)": "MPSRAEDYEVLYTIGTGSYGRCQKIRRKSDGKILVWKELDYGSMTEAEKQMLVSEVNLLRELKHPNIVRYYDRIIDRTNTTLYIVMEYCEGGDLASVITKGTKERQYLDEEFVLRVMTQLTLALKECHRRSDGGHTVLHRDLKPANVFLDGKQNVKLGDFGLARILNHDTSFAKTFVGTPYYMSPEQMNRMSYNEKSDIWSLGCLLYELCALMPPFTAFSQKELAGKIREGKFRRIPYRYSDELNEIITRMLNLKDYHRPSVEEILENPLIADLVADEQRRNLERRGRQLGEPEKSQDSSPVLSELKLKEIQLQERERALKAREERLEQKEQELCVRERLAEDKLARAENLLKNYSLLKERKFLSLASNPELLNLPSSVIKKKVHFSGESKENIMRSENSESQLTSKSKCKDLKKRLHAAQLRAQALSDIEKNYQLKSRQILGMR", "UniProt P11802, sequence (whole entry, looked up)": "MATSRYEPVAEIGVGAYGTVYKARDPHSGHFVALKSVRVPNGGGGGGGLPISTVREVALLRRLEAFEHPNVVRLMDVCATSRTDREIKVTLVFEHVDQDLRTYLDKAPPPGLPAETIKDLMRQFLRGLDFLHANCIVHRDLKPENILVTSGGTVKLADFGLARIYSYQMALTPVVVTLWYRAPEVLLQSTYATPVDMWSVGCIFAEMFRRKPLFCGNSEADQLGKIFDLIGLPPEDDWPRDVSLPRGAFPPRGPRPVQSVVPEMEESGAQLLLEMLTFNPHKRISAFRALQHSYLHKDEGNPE", "UniProt Q9UIK4, sequence (whole entry, looked up)": "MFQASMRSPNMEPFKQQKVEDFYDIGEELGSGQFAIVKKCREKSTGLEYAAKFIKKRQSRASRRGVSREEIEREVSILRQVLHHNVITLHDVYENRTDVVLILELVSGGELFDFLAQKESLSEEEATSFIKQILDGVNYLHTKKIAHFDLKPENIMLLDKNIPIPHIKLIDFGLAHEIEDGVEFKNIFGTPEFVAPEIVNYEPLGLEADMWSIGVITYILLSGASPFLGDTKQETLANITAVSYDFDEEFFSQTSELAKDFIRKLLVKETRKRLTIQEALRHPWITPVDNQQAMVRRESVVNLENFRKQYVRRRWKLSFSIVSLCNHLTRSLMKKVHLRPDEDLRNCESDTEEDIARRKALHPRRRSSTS", "UniProt Q99759, sequence (whole entry, looked up)": "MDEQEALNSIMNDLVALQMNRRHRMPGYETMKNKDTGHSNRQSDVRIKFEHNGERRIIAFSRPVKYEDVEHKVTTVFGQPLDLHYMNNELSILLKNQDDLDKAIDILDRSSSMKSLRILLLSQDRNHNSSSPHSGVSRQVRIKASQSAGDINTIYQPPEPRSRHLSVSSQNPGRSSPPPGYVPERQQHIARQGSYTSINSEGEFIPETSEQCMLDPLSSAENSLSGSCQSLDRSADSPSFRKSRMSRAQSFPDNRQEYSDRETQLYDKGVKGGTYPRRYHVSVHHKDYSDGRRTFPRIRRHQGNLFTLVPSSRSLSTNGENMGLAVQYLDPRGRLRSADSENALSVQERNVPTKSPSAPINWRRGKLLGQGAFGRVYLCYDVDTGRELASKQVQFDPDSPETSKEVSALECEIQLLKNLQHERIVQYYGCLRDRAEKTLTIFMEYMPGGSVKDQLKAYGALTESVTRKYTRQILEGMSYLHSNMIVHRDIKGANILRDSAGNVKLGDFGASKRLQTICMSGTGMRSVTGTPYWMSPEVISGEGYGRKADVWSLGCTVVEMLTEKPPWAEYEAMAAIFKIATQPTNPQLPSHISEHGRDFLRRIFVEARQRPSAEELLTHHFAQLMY"}
{"data": "Study 1", "Compound": "CNC(=O)c1cc(Oc2ccc(NC(=O)Nc3ccc(Cl)c(C(F)(F)F)c3)cc2)ccn1", "effect on": "enzyme activity", "mode": "inhibitor", "concentration": "0.5 µM", "reference": "control"}
{"target": "MAP3K3 (Homo sapiens, UniProt Q99759)", "remaining activity [%]": 107}
{"target": "Cyclin-dependent kinase 4, with cyclin D1 (CDK4, Homo sapiens, UniProt P11802)", "remaining activity [%]": 96.2}
{"target": "DAPK1 (Homo sapiens, UniProt P53355)", "remaining activity [%]": 101}
{"target": "cGMP-dependent protein kinase 1, isoform beta (PRKG1, Homo sapiens, UniProt Q13976)", "remaining activity [%]": 104}
{"target": "NEK2 (Homo sapiens, UniProt P51955)", "remaining activity [%]": 99.3}
{"target": "Tyrosine-protein kinase Lyn, isoform B (LYN, Homo sapiens, UniProt P07948)", "remaining activity [%]": 98.8}
{"target": "Protein kinase C beta type, isoform beta-I (PRKCB, Homo sapiens, UniProt P05771)", "remaining activity [%]": 95.1}
{"target": "DAPK2 (Homo sapiens, UniProt Q9UIK4)", "remaining activity [%]": 111}
{"target": "GRK3 (Homo sapiens, UniProt P35626)", "remaining activity [%]": 98.4}
{"target": "TGFBR1 (Homo sapiens, UniProt P36897)", "remaining activity [%]": 94.1}
{"target": "MAPK9 (Homo sapiens, UniProt P45984)", "remaining activity [%]": 94.8}
{"target": "CHEK2 (Homo sapiens, UniProt O96017)", "remaining activity [%]": 102}
{"target": "STK10 (Homo sapiens, UniProt O94804)", "remaining activity [%]": 72.4}
{"data": "Study 2", "SMILES": "COCCOc1nc(-c2ccc(Cl)nc2)nc2c1CN(C(=O)c1ncn3ccccc13)CC2", "technique": "competition with immobilised ligand", "concentration": "0.1 µM"}
{"target": "CDK8 (Homo sapiens, UniProt P49336)", "assay": "cell-free assay", "remaining binding": "100%"}
{"target": "CDK17 (Homo sapiens, UniProt Q00537)", "assay": "cell-free assay", "remaining binding": "100%"}
{"target": "PIK3C3 (Homo sapiens, UniProt Q8NEB9)", "assay": "cell-free assay", "remaining binding": "100%"}
{"target": "TXK (Homo sapiens, UniProt P42681)", "assay": "binding", "remaining binding": "100%"}
{"target": "ANKK1 (Homo sapiens, UniProt Q8NFD2)", "assay": "cell-free assay", "remaining binding": "100%"}
{"data": "Study 3", "cell line": "mouse MPNST tumor cells", "technique": "high-content immunofluorescence imaging", "measured": "nuclear SOX9", "concentration": "10 µM", "time": "12 h", "setting": "mean of 2 replicates", "reference": "DMSO control", "direction": "higher = more nuclear SOX9"}
{"SMILES": "Cc1nnc(NS(=O)(=O)c2ccc(N)cc2)s1", "nuclear SOX9 intensity": "94.5 % of DMSO"}
{"SMILES": "NNC(=O)c1sc2cccc(Cl)c2c1Cl", "nuclear SOX9 intensity": "101 % of DMSO"}
{"SMILES": "C=CCN1CCCC1CNC(=O)c1cc2nn[nH]c2cc1OC (centres unmarked)", "nuclear SOX9 intensity": "97.4 % of DMSO"}
{"SMILES": "COc1cc(CN(CCN)C(=O)c2cccs2)ccc1OCc1ccccc1", "nuclear SOX9 intensity": "99.9 % of DMSO"}
{"SMILES": "NC(=O)c1nc(Nc2ccccc2)sc1NC(=O)C1CCCCC1", "nuclear SOX9 intensity": "145 % of DMSO"}
{"SMILES": "O=C1c2cccc3c2[C@H](CCC3)CN1[C@@H]1CN2CCC1CC2", "nuclear SOX9 intensity": "121 % of DMSO and 115 % of DMSO"}
{"data": "Study 4", "cell line": "Huh-7", "concentration": "10 µM", "time": "24 h"}
{"SMILES": "CN1Cc2c(N)cccc2C(c2ccccc2)C1 (centres unmarked)", "viability [%]": 96.2}
{"SMILES": "CC[C@@H](Cc1c(I)cc(I)c(N)c1I)C(=O)O", "viability [%]": 101}
{"SMILES": "C[C@H]1O[C@H](O[C@H]2[C@H](O)[C@@H](O)[C@@H](O[C@H]3[C@H](O)[C@@H](O)C(O)O[C@@H]3CO)O[C@@H]2CO)[C@H](O)[C@@H](O)[C@@H]1N[C@H]1C=C(CO)[C@@H](O)[C@H](O)[C@H]1O (some centres unmarked)", "viability [%]": 99.6}
{"SMILES": "O=C(O)[C@H]1/C(=C/CO)O[C@@H]2CC(=O)N21", "viability [%]": 102}
{"SMILES": "CC(Oc1ccccc1)C(=O)N[C@@H]1C(=O)N2[C@@H]1SC(C)(C)[C@@H]2C(=O)O (some centres unmarked)", "viability [%]": 104}
{"note": "Repeated from above (study 4):"}
{"SMILES": "CC[C@@H](Cc1c(I)cc(I)c(N)c1I)C(=O)O", "viability [%]": 101}
{"SMILES": "CC(Oc1ccccc1)C(=O)N[C@@H]1C(=O)N2[C@@H]1SC(C)(C)[C@@H]2C(=O)O (some centres unmarked)", "viability [%]": 104}
